Experimental data from different studies.
Lines come from different studies, so protocols differ. ± gives the spread as reported.
rep main protease: Replicase polyprotein 1ab, main protease (rep, Severe acute respiratory syndrome coronavirus 2, UniProt P0DTD1)

Substance = CN1C(=O)CN=C(C2=CCCCC2)c2cc(Cl)ccc21; target or system = SARS-CoV-2; test = viral replication; system = Vero C1008, USA-WA1/2020; conditions = 2.5 µM, reconfirmation; endpoint = inhibition; result = 48.4%
Substance = CC[C@H](C)[C@H](NC(=O)[C@H](CC(C)C)NC(=O)[C@H](Cc1c[nH]c2ccccc12)NC(=O)[C@H](CCC(N)=O)NC(=O)[C@@H](NC(=O)[C@H](Cc1ccccc1)NC(=O)[C@H](C)NC(=O)[C@H](CCCCNC(=O)COCCOCCNC(=O)COCCOCCNC(=O)CC[C@H](NC(=O)CCCCCCCCCCCCCCCCCCC(=O)O)C(=O)O)NC(=O)[C@H](CCC(N)=O)NC(=O)[C@H](C)NC(=O)[C@@H](NC(=O)[C@H](CCCCN)NC(=O)[C@H](CC(=O)O)NC(=O)[C@H](CC(C)C)NC(=O)C(C)(C)NC(=O)[C@@H](NC(=O)[C@H](CO)NC(=O)[C@H](Cc1ccc(O)cc1)NC(=O)[C@H](CC(=O)O)NC(=O)[C@H](CO)NC(=O)[C@@H](NC(=O)[C@H](Cc1ccccc1)NC(=O)[C@@H](NC(=O)CNC(=O)[C@H](CCC(=O)O)NC(=O)C(C)(C)NC(=O)[C@@H](N)Cc1ccc(O)cc1)[C@@H](C)O)[C@@H](C)O)[C@@H](C)CC)[C@@H](C)CC)C(C)C)C(=O)N[C@@H](C)C(=O)NCC(=O)NCC(=O)N1CCC[C@H]1C(=O)N[C@@H](CO)C(=O)N[C@@H](CO)C(=O)NCC(=O)N[C@@H](C)C(=O)N1CCC[C@H]1C(=O)N1CCC[C@H]1C(=O)N1CCC[C@H]1C(=O)N[C@@H](CO)C(N)=O; system = healthy subjects, single ascending dose; conditions = 0.25 mg, day 29; endpoint = serum lipase; result = 23.5 ± 15.6 U/L
Substance = calpain inhibitor III; target or system = SARS-CoV-2; test = viral replication; system = USA-WA1/2020; conditions = 2.5 µM; endpoint = inhibition; result = 95.4%
Substance = CC(C)=CCc1c(O)ccc(C(=O)/C=C/c2ccc(O)cc2)c1O; target or system = SARS-CoV-2; test = viral cytopathic effect; system = Vero E6; conditions = 12.5 µM; endpoint = inhibition; result = 0%
Substance = Nc1ncnc2c([C@@H]3N[C@H](CO)[C@@H](O)[C@H]3O)c[nH]c12; target or system = Marburg marburgvirus; test = virus production; system = HeLa, Musoke; conditions = 1.6 µM; endpoint = inhibition; result = 39.8%
Substance = O=C(CSc1nc2c(c(=O)[nH]1)CCCC2)NNC(=O)c1ccc(Cl)cc1; target or system = SARS-CoV-2; test = viral adsorption, plaque reduction; conditions = 31.25 µM; endpoint = inhibition; result = 6.7 ± 6.65%
Substance = O=C(O)CCc1cc(C(=O)c2ccc(OC3CCCC3)cc2O)ccc1OCc1ccc2c(=O)[nH]oc2c1; target or system = rep main protease; test = viral replication, Gluc reporter; system = SARS-CoV-2; conditions = 20 µM; endpoint = inhibition; result = 1.34%
Substance = CC(C)(C)[C@H](NC(=O)C(F)(F)F)C(=O)N1C[C@H]2[C@@H]([C@H]1C(=O)N[C@H](C#N)C[C@@H]1CCNC1=O)C2(C)C; target or system = SARS-CoV-2; test = viral replication, infectious virus; system = Vero E6; conditions = 0.0156 µM; endpoint = inhibition; result = 30.1%
Substance = COc1ccc(C[C@@H]2c3cc(Oc4cc(C[C@@H]5c6cc(O)c(OC)cc6CCN5C)ccc4O)c(OC)cc3CCN2C)cc1; target or system = SARS-CoV-2; test = cytopathic effect; system = Vero E6; conditions = 50 µM, first run; endpoint = inhibition; result = 50%
Substance = C/C=C(\NC(=O)C(NC(=O)CNC(=O)C(C)(O)C(O)/C=C\C(C)=C/C(C)CC)[C@H](C)O)C(=O)NC(C(=O)NC1C(=O)NC(COC)C(=O)NCC(=O)N[C@@H](C)C(=O)N(C)C([C@@H](C)O)C(=O)NC(C(OC)c2ccc(O)cc2)C(=O)N2CCCCC2C(=O)OC1C(C)C)[C@@H](C)[C@@H](C)C(N)=O (stereo partly drawn); target or system = SARS-CoV-2; test = viral replication, mNeonGreen reporter virus; conditions = 50 µM; endpoint = inhibition; result = 6.86%
Substance = C[C@@H]1CS/C(=N\NC(=O)C(=O)[C@H](NC(=O)C2CCCCCC2)C2CCOCC2)N1C; target or system = SARS-CoV-2; test = viral replication; system = Vero E6, USA-WA1/2020; conditions = 2.5 µM; endpoint = inhibition; result = 87.2%
Substance = CNC(=O)[C@@H](NC(=O)[C@H](CC(C)C)[C@H](O)C(=O)NO)C(C)(C)C; system = PB population, mouse; conditions = intravenous, 120 µg/mouse, 24 h, given 0 min after venom, added: Daboia russelii venom 2.5 x LD50 i.p.; endpoint = survival; result = 0%
Substance = Cc1nn(-c2ccc(Cl)cc2)c2c1C(c1ccc(I)cc1)C(C#N)=C(N)O2 (stereo not drawn); target or system = SARS-CoV-2; test = viral replication; system = Vero; conditions = 10 µM; endpoint = inhibition; result = 58.1%
Substance = Cc1cccc(/C=N/Nc2cc(N3CCOCC3)nc(OCCc3ccccn3)n2)c1; target or system = SARS-CoV-2; test = viral replication; system = Vero E6, USA-WA1/2020; conditions = 2.5 µM; endpoint = inhibition; result = 93.8%
Substance = COc1cccc2c1CCCC2CCCN1CCN(C2CCCCC2)CC1 (stereo not drawn); target or system = SARS-CoV-2; test = viral replication; system = Vero E6; conditions = concentration not given; endpoint = inhibition; result = active
Substance = CC(C)C[C@H](NC(=O)[C@H](CCc1ccccc1)NC(=O)CN1CCOCC1)C(=O)N[C@@H](Cc1ccccc1)C(=O)N[C@@H](CC(C)C)C(=O)[C@@]1(C)CO1; target or system = rep main protease; test = reporter gene (Gaussia luciferase), inhibitor; conditions = 20 µM; endpoint = inhibition; result = -5.27%
Substance = Cn1cnc(Cn2c(=O)[nH]/c(=N\c3cc4cn(C)nc4cc3Cl)n(Cc3cc(F)c(F)cc3F)c2=O)n1; target or system = SARS-CoV-2; test = viral replication; system = Vero C1008, wild type; conditions = 0.1543 µM; endpoint = inhibition; result = 45%
Substance = Cn1cnc(Cn2c(=O)[nH]/c(=N\c3cc4cn(C)nc4cc3Cl)n(Cc3cc(F)c(F)cc3F)c2=O)n1; system = human, mild renal impairment; conditions = oral, 375 mg; endpoint = dry mouth TEAE, Mild severity; result = 12.5%
Substance = Cc1nn(-c2ccc(Cl)cc2)c2c1C(c1ccc(Br)cc1)C(C#N)=C(N)O2 (stereo not drawn); target or system = SARS-CoV-2; test = viral replication; system = Vero; conditions = 1 µM; endpoint = inhibition; result = 10.2%
Substance = CC(C)(C)[C@H](NS(=O)(=O)C1CC1)C(=O)N1C[C@H]2[C@@H]([C@H]1C(=O)N[C@H](C#N)C[C@@H]1CCNC1=O)C2(C)C; target or system = SARS-CoV-2; test = viral replication, qRT-PCR viral RNA; system = Vero E6; conditions = 1 µM; endpoint = inhibition; result = 10%
Substance = CC(C)(C)NCc1ccc(Nc2ccnc3cc(Cl)ccc23)cc1O; target or system = SARS-CoV-2; test = viral replication; system = Vero E6, USA-WA1/2020; conditions = 2.5 µM; endpoint = inhibition; result = 54.9%
Substance = O=C(/C=C/c1ccc(O)c(O)c1/C=C/c1ccc(O)c(O)c1)O[C@H](Cc1ccc(O)c(O)c1)C(=O)O; target or system = SARS-CoV-2; test = cytopathic effect; system = Vero E6; conditions = 3.125 µM, first run; endpoint = inhibition; result = 0%
Substance = CC(C)(C(=O)c1cccnc1)c1cccnc1; target or system = SARS-CoV-2; test = viral replication; system = Vero E6, USA-WA1/2020; conditions = 2.5 µM; endpoint = inhibition; result = 46.4%
Substance = O=C(CSc1nc2c(c(=O)[nH]1)CCCC2)NNC(=O)c1ccc([N+](=O)[O-])cc1; target or system = SARS-CoV-2; test = viral replication, plaque reduction; conditions = 31.25 µM; endpoint = inhibition; result = 30 ± 3.3%

Some of these lines once more:
Substance = CC(C)(C)NCc1ccc(Nc2ccnc3cc(Cl)ccc23)cc1O; target or system = SARS-CoV-2; test = viral replication; system = Vero E6, USA-WA1/2020; conditions = 2.5 µM; endpoint = inhibition; result = 54.9%
Substance = Nc1ncnc2c([C@@H]3N[C@H](CO)[C@@H](O)[C@H]3O)c[nH]c12; target or system = Marburg marburgvirus; test = virus production; system = HeLa, Musoke; conditions = 1.6 µM; endpoint = inhibition; result = 39.8%
